Assay results gathered from unrelated publications.
Protocols differ between the studies behind these lines. ± marks the error that the study gave.
Eif4e: Eukaryotic translation initiation factor 4E (Eif4e, Mus musculus, UniProt P63073)
UniProt P63073, sequence (whole entry, looked up): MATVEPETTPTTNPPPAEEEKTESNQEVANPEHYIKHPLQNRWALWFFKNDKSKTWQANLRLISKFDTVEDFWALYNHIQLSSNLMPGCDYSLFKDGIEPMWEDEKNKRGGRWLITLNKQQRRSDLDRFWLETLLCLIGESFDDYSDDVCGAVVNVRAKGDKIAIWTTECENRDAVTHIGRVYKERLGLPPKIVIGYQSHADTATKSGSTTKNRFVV
CXCL8: Interleukin-8 (CXCL8, Homo sapiens, UniProt P10145)
UniProt P10145, sequence (whole entry, looked up): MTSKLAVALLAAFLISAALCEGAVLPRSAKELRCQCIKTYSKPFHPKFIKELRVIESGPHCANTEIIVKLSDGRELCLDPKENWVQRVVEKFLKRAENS
POLB: DNA polymerase beta (POLB, Homo sapiens, UniProt P06746)
UniProt Q92793, sequence (whole entry, looked up): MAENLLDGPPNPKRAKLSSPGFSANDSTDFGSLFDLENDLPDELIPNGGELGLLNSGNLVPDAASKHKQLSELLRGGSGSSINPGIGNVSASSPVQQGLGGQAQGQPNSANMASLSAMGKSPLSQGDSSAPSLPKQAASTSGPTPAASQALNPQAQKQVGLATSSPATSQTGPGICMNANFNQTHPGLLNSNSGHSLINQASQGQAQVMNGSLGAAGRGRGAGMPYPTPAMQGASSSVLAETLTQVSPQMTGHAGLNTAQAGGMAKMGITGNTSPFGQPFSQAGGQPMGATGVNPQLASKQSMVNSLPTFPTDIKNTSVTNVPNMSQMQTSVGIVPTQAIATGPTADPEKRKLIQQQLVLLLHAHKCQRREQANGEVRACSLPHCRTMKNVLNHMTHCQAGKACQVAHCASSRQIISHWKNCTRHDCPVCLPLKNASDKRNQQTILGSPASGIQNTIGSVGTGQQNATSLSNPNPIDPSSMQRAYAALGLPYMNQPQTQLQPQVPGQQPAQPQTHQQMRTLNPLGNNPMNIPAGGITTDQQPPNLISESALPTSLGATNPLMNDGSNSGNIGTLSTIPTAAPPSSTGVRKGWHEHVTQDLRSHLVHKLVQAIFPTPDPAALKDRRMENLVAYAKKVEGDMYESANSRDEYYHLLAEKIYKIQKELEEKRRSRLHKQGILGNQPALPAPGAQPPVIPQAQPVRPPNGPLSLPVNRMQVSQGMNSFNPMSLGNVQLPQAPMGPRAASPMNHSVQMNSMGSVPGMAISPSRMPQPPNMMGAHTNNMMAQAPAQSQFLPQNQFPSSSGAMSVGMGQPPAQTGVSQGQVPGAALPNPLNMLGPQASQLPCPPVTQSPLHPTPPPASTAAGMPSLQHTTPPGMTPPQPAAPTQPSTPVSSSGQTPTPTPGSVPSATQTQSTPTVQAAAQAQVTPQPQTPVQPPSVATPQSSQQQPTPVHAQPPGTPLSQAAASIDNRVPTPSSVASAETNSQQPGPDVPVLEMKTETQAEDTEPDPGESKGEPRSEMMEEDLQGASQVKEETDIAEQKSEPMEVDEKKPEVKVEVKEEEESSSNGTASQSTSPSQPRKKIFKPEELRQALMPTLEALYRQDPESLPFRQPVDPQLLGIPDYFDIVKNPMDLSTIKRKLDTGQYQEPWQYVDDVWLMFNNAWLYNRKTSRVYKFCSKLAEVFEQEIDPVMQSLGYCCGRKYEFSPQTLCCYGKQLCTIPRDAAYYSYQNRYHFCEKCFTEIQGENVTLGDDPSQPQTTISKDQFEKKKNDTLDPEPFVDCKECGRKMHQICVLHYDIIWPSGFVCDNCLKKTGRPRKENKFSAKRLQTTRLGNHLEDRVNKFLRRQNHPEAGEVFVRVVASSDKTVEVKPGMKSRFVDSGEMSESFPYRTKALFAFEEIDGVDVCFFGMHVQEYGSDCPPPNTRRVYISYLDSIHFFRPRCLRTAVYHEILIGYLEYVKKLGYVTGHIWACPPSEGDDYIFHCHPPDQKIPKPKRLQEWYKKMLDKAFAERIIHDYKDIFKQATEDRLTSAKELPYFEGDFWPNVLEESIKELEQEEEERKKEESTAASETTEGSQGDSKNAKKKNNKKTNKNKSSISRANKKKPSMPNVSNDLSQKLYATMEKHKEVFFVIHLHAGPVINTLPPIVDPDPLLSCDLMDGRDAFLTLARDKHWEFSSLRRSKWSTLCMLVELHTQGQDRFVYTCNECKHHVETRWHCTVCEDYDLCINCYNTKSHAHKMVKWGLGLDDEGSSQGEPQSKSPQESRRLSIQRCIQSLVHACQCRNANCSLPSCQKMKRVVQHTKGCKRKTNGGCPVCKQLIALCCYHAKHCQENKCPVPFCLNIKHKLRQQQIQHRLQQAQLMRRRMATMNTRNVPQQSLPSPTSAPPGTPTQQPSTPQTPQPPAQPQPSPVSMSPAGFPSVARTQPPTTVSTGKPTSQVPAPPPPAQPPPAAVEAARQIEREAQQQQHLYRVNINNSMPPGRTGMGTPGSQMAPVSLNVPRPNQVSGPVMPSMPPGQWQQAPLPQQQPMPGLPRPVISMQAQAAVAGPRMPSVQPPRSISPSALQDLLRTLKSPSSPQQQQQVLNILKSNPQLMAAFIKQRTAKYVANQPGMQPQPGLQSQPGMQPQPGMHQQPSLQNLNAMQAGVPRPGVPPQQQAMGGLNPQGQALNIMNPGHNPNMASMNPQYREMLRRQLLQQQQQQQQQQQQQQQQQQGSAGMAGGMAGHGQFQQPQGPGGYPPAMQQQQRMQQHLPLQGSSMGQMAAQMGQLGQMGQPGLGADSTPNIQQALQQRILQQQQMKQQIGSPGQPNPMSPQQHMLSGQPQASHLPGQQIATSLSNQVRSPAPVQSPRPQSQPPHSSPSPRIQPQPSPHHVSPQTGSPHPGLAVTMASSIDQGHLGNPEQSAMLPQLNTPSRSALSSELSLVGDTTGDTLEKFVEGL
UniProt P20248, sequence (whole entry, looked up): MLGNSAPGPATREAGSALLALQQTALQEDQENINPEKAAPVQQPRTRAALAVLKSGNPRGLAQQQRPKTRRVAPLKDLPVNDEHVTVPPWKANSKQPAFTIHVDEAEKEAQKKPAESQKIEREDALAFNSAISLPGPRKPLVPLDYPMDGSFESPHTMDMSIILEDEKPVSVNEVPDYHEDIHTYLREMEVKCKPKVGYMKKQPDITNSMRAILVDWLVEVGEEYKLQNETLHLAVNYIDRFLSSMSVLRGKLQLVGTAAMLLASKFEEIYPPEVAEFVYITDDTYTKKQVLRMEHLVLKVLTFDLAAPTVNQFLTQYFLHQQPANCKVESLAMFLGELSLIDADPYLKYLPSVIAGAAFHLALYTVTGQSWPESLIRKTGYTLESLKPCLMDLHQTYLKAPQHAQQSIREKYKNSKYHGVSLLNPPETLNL
UniProt Q14191, sequence (whole entry, looked up): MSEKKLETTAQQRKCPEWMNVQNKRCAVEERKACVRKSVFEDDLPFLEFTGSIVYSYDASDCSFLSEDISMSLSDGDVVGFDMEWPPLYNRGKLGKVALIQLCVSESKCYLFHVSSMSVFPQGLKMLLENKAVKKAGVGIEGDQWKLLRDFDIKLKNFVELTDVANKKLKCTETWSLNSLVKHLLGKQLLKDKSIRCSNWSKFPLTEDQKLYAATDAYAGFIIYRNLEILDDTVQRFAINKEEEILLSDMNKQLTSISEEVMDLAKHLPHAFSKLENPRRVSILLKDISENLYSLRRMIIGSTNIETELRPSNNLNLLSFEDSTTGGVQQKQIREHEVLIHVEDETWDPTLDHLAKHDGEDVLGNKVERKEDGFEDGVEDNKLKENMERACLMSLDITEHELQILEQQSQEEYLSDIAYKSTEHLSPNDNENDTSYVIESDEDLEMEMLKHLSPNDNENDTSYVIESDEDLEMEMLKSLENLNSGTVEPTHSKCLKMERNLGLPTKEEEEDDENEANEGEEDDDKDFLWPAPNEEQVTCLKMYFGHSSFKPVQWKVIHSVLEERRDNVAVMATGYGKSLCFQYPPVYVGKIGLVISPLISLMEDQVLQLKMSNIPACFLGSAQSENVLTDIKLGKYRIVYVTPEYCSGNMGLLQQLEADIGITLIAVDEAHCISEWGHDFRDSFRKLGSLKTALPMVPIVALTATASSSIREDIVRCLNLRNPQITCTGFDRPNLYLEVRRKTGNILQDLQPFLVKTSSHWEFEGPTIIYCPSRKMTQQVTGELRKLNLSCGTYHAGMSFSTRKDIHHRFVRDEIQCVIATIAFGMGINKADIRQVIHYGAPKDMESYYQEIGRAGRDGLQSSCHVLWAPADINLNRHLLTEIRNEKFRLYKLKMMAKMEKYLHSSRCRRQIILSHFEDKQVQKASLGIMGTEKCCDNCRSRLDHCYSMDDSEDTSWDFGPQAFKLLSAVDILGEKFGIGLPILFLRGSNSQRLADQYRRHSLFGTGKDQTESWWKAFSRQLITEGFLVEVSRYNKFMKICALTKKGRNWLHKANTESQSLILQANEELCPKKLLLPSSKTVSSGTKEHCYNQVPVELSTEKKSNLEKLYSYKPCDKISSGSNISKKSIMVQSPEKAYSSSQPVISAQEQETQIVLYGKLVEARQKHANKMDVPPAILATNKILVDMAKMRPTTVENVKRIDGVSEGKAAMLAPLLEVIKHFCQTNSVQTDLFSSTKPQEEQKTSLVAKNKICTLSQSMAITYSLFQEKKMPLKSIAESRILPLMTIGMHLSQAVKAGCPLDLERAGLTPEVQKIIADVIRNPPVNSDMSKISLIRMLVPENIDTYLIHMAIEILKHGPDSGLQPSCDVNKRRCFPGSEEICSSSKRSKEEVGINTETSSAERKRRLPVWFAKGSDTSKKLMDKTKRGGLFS
UniProt Q16548, sequence (whole entry, looked up): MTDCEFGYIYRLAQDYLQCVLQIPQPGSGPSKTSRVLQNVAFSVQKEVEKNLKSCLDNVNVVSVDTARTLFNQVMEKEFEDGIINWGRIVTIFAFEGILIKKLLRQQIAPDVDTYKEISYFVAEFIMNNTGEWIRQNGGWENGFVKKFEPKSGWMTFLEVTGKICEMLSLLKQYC
UniProt P22629, sequence (whole entry, looked up): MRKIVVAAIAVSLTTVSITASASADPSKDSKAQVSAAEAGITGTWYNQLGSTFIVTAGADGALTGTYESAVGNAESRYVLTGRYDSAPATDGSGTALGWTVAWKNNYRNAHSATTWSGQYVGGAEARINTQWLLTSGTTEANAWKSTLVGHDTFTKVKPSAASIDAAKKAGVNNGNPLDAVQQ

`CC[C@H](C)[C@@H]1NC(=O)[C@H](C)NC(=O)[C@H](C)NC(=O)[C@H]([C@@H](C)O)NC(=O)[C@H](Cc2ccccc2)NC(=O)[C@@H]2CSSC[C@@H]3NC(=O)[C@H](C(C)C)NC(=O)[C@H](CCCCN)NC(=O)[C@H](C)NC(=O)[C@H](CCCCN)NC(=O)[C@@H]4CSSC[C@H](NC(=O)[C@H](CO)NC(=O)[C@H](CCC(=O)O)NC(=O)CNC(=O)[C@H](CSSC[C@H](NC(=O)CNC1=O)C(=O)N[C@@H](CO)C(=O)N4)NC(=O)[C@@H]1CCCN1C(=O)[C@H](Cc1ccccc1)NC(=O)CNC(=O)[C@H](CC(N)=O)NC(=O)[C@H](CCCCN)NC(=O)[C@H](Cc1ccc(O)cc1)NC3=O)C(=O)N[C@@H](C(C)C)C(=O)N[C@@H](Cc1ccc(O)cc1)C(=O)N[C@@H](CC(C)C)C(=O)N1CCC[C@H]1C(=O)N2` has a Kd of 4.58 ± 0.07 µM (POPC/POPE lipid membrane; membrane binding, surface plasmon resonance; POPC/POPE 80:20 vesicles; pH 7.4).
`Cc1cn([C@H]2C[C@H](O)[C@@H](COP(=O)(O)OP(=O)(O)C(Cl)(Cl)P(=O)(O)O)O2)c(=O)[nH]c1=O` has a Kd of 20.9 ± 9.8 µM (DNA polymerase beta (POLB, Homo sapiens, UniProt P06746, I260M); substrate, single turnover kinetics; 37 °C).
The Kd of `N=C1N[C@H]2[C@H](CS[C@H]2CCCCC(=O)NCCNC(=O)c2cc3cc(F)c(O)c(F)c3oc2=O)N1` is reported as 2.73 µM (Streptavidin (Streptomyces avidinii, UniProt P22629); binding; pH 7.4).
For `C=CC(=O)Nc1cc(Nc2nccc(-n3ccc4nc(OC)ccc43)n2)c(OC)cc1N(C)CCN(C)C`, the Kd was 5e-05 µM (Epidermal growth factor receptor (EGFR, Homo sapiens, UniProt P00533, L858R/T790M); binding, competition with immobilised ligand).
For `CC(C)(C)Nc1c(F)c(S(N)(=O)=O)c(F)c(F)c1S(=O)(=O)CCc1ccccc1`, the Kd was 0.077 µM (Carbonic anhydrase 2 (CA2, Homo sapiens, UniProt P00918, A65S/F130A/I91T/L203N/N67K/V134S); pH 7).
`CC(C)CCCC(C)C1CCC2C3CC=C4CC(OC(=O)CCC(=O)NCCCCCCNC(=O)O[C@H]5[C@@H](O)[C@H](n6cnc7c(=O)[nH]c(N)nc76)O[C@@H]5COP(=O)(O)OP(=O)([O-])OP(=O)(O)OC[C@H]5O[C@@H](n6c[n+](C)c7c(O)nc(N)nc76)[C@H](O)[C@@H]5O)CCC4(C)C3CCC12C` (stereo partly drawn) has a Kd of 0.043 µM (Eif4e; cap analogue binding, pyrene fluorescence competition; 20 °C).
The Kd of `CC[C@H](C)[C@@H]1NC(=O)[C@H](C)NC(=O)[C@H](C)NC(=O)[C@H]([C@@H](C)O)NC(=O)[C@H](Cc2ccccc2)NC(=O)[C@@H]2CSSC[C@@H]3NC(=O)[C@H](C(C)C)NC(=O)[C@H](CCCCN)NC(=O)[C@H](CO)NC(=O)[C@H](CCCCN)NC(=O)[C@@H]4CSSC[C@H](NC(=O)[C@H](C)NC(=O)[C@H](CCC(=O)O)NC(=O)CNC(=O)[C@H](CSSC[C@H](NC(=O)CNC1=O)C(=O)N[C@@H](CO)C(=O)N4)NC(=O)[C@@H]1CCCN1C(=O)[C@H](Cc1ccccc1)NC(=O)CNC(=O)[C@H](CC(N)=O)NC(=O)[C@H](CCCCN)NC(=O)[C@H](Cc1ccc(O)cc1)NC3=O)C(=O)N[C@@H](C(C)C)C(=O)N[C@@H](Cc1ccc(O)cc1)C(=O)N[C@@H](CC(C)C)C(=O)N1CCC[C@H]1C(=O)N2` is reported as 8.73 ± 0.5 µM (POPC/POPE lipid membrane; membrane binding, surface plasmon resonance; POPC/POPE 80:20 vesicles; pH 7.4).
For `CC[C@H](C)[C@H](NC(=O)[C@H](CC(=O)O)NC(=O)[C@H](CO)NC(C)=O)C(=O)N[C@@H](CSCc1ccccc1)C(=O)N[C@@H](CC(=O)O)C(=O)N[C@@H](Cc1ccccc1)C(=O)N[C@H](C(=O)N[C@@H](CC(C)C)C(=O)N[C@@H](CCCCN)C(=O)N[C@@H](CC(N)=O)C(=O)N[C@@H](Cc1ccc(O)cc1)C(=O)N1CCC[C@H]1C(N)=O)C(C)C`, the Kd was 8.3 ± 1.3 µM (CREB-binding protein, KIX domain (CREBBP, Homo sapiens, UniProt Q92793); binding, fluorescence polarisation).
The Kd of `Cc1n[nH]c(C)c1CCCOc1cc(OCCCCCCNCCOCCN=[N+]=[N-])cc(C(=O)O)c1` is reported as 0.107 µM (Transthyretin (TTR, Homo sapiens, UniProt P02766); cell-free assay, FP; pH 7.4).
With `Cc1ccc(Oc2nc3cc(-c4ccc5c(ccn5C)c4)c(Cl)cc3[nH]2)cc1C(=O)O` the Kd was 1.57 µM (PRKAA2/PRKAB1, phosphorylated; with gamma1 (Homo sapiens, UniProt P54646+Q9Y478, R83A); biolayer interferometry; AMPK complex α2β1(R83A)γ1).
`CCOc1ccc(C(C)=O)cc1NC(=O)c1cc(NC(C)=O)cc(NC(C)=O)c1` has a Kd of 0.2 µM (CREB-binding protein, bromodomain (CREBBP, Homo sapiens, UniProt Q92793); binding, competition with immobilised ligand).
`CC[C@H](C)[C@H](NC(=O)[C@H](CC(C)C)NC(=O)[C@H](CCCNC(=N)N)NC(=O)c1ccc(CN2CCN(C)CC2)cc1)C(=O)N[C@@H](Cc1ccccc1)C(N)=O` has a Kd of 3.55 ± 0.361 µM (Cyclin-A2 (CCNA2, Homo sapiens, UniProt P20248); binding, tryptophan fluorescence titration; expressed without chaperones).
`Cc1ccc(NC(=O)CNS(=O)(=O)c2nc(-c3ccc(OC(F)(F)F)cc3)cc(C(F)(F)F)n2)cc1` gave a Kd of 0.04 µM (Bifunctional 3'-5' exonuclease/ATP-dependent helicase WRN (WRN, Homo sapiens, UniProt Q14191); binding, ITC).
`O=C1c2sc(-c3ccc(N4CCC(F)C4)nc3F)nc2CCN1c1cccnc1` (stereo not drawn) gave a Kd of 0.038 ± 0.025 µM (TAR DNA-binding protein 43, aggregated (TARDBP, Homo sapiens, UniProt Q13148); radioligand binding; FTLD-TDP type B brain homogenate).
The Kd of `CC(=O)N[C@@H]1[C@@H](O[C@@H]2O[C@H](C(=O)O)[C@@H](O[C@@H]3O[C@H](CO)[C@@H](O)[C@H](O[C@@H]4O[C@H](C(=O)O)[C@@H](OS(=O)(=O)O)[C@H](OS(=O)(=O)O)[C@H]4OS(=O)(=O)O)[C@H]3NC(C)=O)[C@H](OS(=O)(=O)O)[C@H]2OS(=O)(=O)O)[C@H](O)[C@@H](CO)O[C@H]1N=[N+]=[N-]` is reported as 29.4 µM (CXCL8; ligand displacement, FP).
The Kd of `O=C(CCc1cn[nH]c1)N1CCOC(CC(c2ccccc2)c2ccccc2)C1` (stereo not drawn) is reported as 117 ± 17 µM (Troponin C, slow skeletal and cardiac muscles, with cTnI (TNNC1, Human, UniProt P63316, C35S/C84S/T53C); slowing of Ca2+ dissociation, stopped-flow fluorescence; pH 7.0, 15 °C, IAANS-labelled chimera).
`CC[C@H](C)[C@@H]1NC(=O)[C@H](C)NC(=O)[C@H](C)NC(=O)[C@H]([C@@H](C)O)NC(=O)[C@H](Cc2ccccc2)NC(=O)[C@@H]2CSSC[C@@H]3NC(=O)[C@H](C(C)C)NC(=O)[C@H](CCCCN)NC(=O)[C@H](CO)NC(=O)[C@H](CCCCN)NC(=O)[C@@H]4CSSC[C@H](NC(=O)[C@H](CO)NC(=O)[C@H](CCC(=O)O)NC(=O)CNC(=O)[C@H](CSSC[C@H](NC(=O)CNC1=O)C(=O)N[C@@H](CO)C(=O)N4)NC(=O)[C@@H]1CCCN1C(=O)[C@H](Cc1ccccc1)NC(=O)CNC(=O)[C@H](CC(N)=O)NC(=O)[C@H](CCCCN)NC(=O)[C@H](Cc1ccc(O)cc1)NC3=O)C(=O)N[C@@H](C)C(=O)N[C@@H](Cc1ccc(O)cc1)C(=O)N[C@@H](CC(C)C)C(=O)N1CCC[C@H]1C(=O)N2` gave a Kd of 29.5 ± 1.29 µM (POPC/POPE lipid membrane; membrane binding, surface plasmon resonance; POPC/POPE 80:20 vesicles; pH 7.4).
`CC[C@H](C)[C@H](NC(=O)[C@H](CCCNC(=N)N)NC(=O)[C@H](CO)NC(=O)[C@H](CC(C)C)NC(=O)[C@H](CCC(=O)O)NC(=O)[C@H](CCC(N)=O)NC(=O)[C@H](C)NC(=O)[C@@H](NC(=O)[C@H](Cc1c[nH]c2ccccc12)NC(=O)[C@@H](NC(=O)[C@H](CCC(=O)O)NC(=O)[C@@H]1CCCN1C(=O)[C@H](CCCNC(=N)N)NC(=O)c1ccc2c(c1)C(=O)OC21c2ccc(O)cc2Oc2cc(O)ccc21)[C@@H](C)CC)[C@@H](C)CC)C(=O)NCC(=O)N[C@@H](CC(=O)O)C(=O)N[C@@H](CCC(=O)O)C(=O)N[C@@H](Cc1ccccc1)C(=O)N[C@@H](CC(N)=O)C(=O)N[C@@H](C)C(=O)N[C@@H](Cc1ccc(O)cc1)C(=O)N[C@@H](Cc1ccc(O)cc1)C(=O)N[C@@H](C)C(=O)N[C@@H](CCCNC(=N)N)C(N)=O` has a Kd of 0.0052 ± 0.0017 µM (Bcl-2-related protein A1 (Homo sapiens, UniProt Q16548); fluorescence anisotropy).
`Nc1nc2c(ncn2[C@H]2C[C@H](O)[C@@H](COP(=O)(O)OP(=O)(O)[C@H](Cl)P(=O)(O)O)O2)c(=O)[nH]1` gave a Kd of 290 ± 20 µM (POLB; substrate, quench-flow kinetics; pH 8.0, 37 °C, misincorporation opposite T in gapped DNA).
With `COc1ccc(CNc2nc3c(c(=O)[nH]2)[n+](C)cn3C2OC(COP(=O)(O)OP(=O)([O-])OP(=O)(O)OCC3OC(n4cnc5c(=O)[nH]c(N)nc54)C(O)C3O)C(O)C2O)cc1` (stereo not drawn) the Kd was 6.26 µM (Eif4e; differential scanning fluorimetry).
`Cc1cn(C2CC(O)C(COP(=O)(O)OP(=O)(O)C(Cl)P(=O)(O)O)O2)c(=O)[nH]c1=O` (mixture of isomers) has a Kd of 30.3 ± 7.3 µM (POLB; dNTP binding, substrate, single-turnover kinetics; single-nucleotide gapped DNA; 37 °C, wild type, correct incorporation, added: dTTP opposite template A).
For `C=C1C(=O)O[C@@H]2[C@H]3C(CO)=CC(=O)C3=C(C)C[C@H](OC(=O)Cc3ccc(O)cc3)[C@@H]12`, the Kd was 155 µM (Alpha-glucosidase MAL12 (MAL12, Saccharomyces cerevisiae S288c, UniProt P53341); binding, fluorescence quenching; 30 min, 298 K).
With `OC[C@H]1Oc2cc(I)cc3c2[C@@H](OC3)[C@H]1O` the Kd was 250 µM (Galectin-8 (LGALS8, Homo sapiens, UniProt O00214); cell-free assay, FP).
`CC(=O)N[C@@H]1[C@@H](O[C@@H]2O[C@H](C(=O)O)[C@@H](O[C@@H]3O[C@H](COS(=O)(=O)O)[C@@H](OS(=O)(=O)O)[C@H](O[C@@H]4O[C@H](C(=O)O)[C@@H](O[C@@H]5O[C@H](COS(=O)(=O)O)[C@@H](OS(=O)(=O)O)[C@H](O[C@@H]6O[C@H](C(=O)O)[C@@H](OS(=O)(=O)O)[C@H](OS(=O)(=O)O)[C@H]6OS(=O)(=O)O)[C@H]5NC(C)=O)[C@H](OS(=O)(=O)O)[C@H]4OS(=O)(=O)O)[C@H]3NC(C)=O)[C@H](OS(=O)(=O)O)[C@H]2OS(=O)(=O)O)[C@H](OS(=O)(=O)O)[C@@H](COS(=O)(=O)O)O[C@H]1N=[N+]=[N-]` has a Kd of 1.51 µM (CXCL8; ligand displacement, FP).

A few entries again:
With `OC[C@H]1Oc2cc(I)cc3c2[C@@H](OC3)[C@H]1O` the Kd was 250 µM (Galectin-8 (LGALS8, Homo sapiens, UniProt O00214); cell-free assay, FP).
`CC[C@H](C)[C@@H]1NC(=O)[C@H](C)NC(=O)[C@H](C)NC(=O)[C@H]([C@@H](C)O)NC(=O)[C@H](Cc2ccccc2)NC(=O)[C@@H]2CSSC[C@@H]3NC(=O)[C@H](C(C)C)NC(=O)[C@H](CCCCN)NC(=O)[C@H](CO)NC(=O)[C@H](CCCCN)NC(=O)[C@@H]4CSSC[C@H](NC(=O)[C@H](CO)NC(=O)[C@H](CCC(=O)O)NC(=O)CNC(=O)[C@H](CSSC[C@H](NC(=O)CNC1=O)C(=O)N[C@@H](CO)C(=O)N4)NC(=O)[C@@H]1CCCN1C(=O)[C@H](Cc1ccccc1)NC(=O)CNC(=O)[C@H](CC(N)=O)NC(=O)[C@H](CCCCN)NC(=O)[C@H](Cc1ccc(O)cc1)NC3=O)C(=O)N[C@@H](C)C(=O)N[C@@H](Cc1ccc(O)cc1)C(=O)N[C@@H](CC(C)C)C(=O)N1CCC[C@H]1C(=O)N2` gave a Kd of 29.5 ± 1.29 µM (POPC/POPE lipid membrane; membrane binding, surface plasmon resonance; POPC/POPE 80:20 vesicles; pH 7.4).
The Kd of `CC[C@H](C)[C@@H]1NC(=O)[C@H](C)NC(=O)[C@H](C)NC(=O)[C@H]([C@@H](C)O)NC(=O)[C@H](Cc2ccccc2)NC(=O)[C@@H]2CSSC[C@@H]3NC(=O)[C@H](C(C)C)NC(=O)[C@H](CCCCN)NC(=O)[C@H](CO)NC(=O)[C@H](CCCCN)NC(=O)[C@@H]4CSSC[C@H](NC(=O)[C@H](C)NC(=O)[C@H](CCC(=O)O)NC(=O)CNC(=O)[C@H](CSSC[C@H](NC(=O)CNC1=O)C(=O)N[C@@H](CO)C(=O)N4)NC(=O)[C@@H]1CCCN1C(=O)[C@H](Cc1ccccc1)NC(=O)CNC(=O)[C@H](CC(N)=O)NC(=O)[C@H](CCCCN)NC(=O)[C@H](Cc1ccc(O)cc1)NC3=O)C(=O)N[C@@H](C(C)C)C(=O)N[C@@H](Cc1ccc(O)cc1)C(=O)N[C@@H](CC(C)C)C(=O)N1CCC[C@H]1C(=O)N2` is reported as 8.73 ± 0.5 µM (POPC/POPE lipid membrane; membrane binding, surface plasmon resonance; POPC/POPE 80:20 vesicles; pH 7.4).
